# Experimental data from different studies.
# Every numbered part comes from another study and shows a few of its results, in no order. Positions count from the first letter of the parent shown.

# Block 1 — target: CCND1, cyclin fold, Cln2 fusion (human); technique: yeast growth competition, sequencing; matrix: yeast; notes: weak parent motif; relative to: not given; direction: higher = stronger binding
# Parent: SLBP docking peptide (human); ARYKRKLLINDFG
Change,normalised enrichment score
A1K,-0.902
I9G,0.0386
G13W,0.0514
R2E,0.417

# Block 2 — technique: aptamer microarray, sandwich; molecule type: DNA with 2'F-ANA; matrix: in vitro; tested at: 200 nM; with: Cy3 exosite-II aptamer, 400 nM; direction: higher = stronger binding; oligonucleotide: GGTTGGTGTGGTTGG
# Target: Prothrombin, mature alpha-thrombin (F2, Homo sapiens, UniProt P00734)
# Notes: whole 15-mer aptamer, many near background
Modification,mean fluorescence intensity
2'F-ANA at 1 3 4 10 12 13 14,52.3 a.u.
2'F-ANA at 4 6 7 8 9 11 12 13 14,87.3 a.u.
2'F-ANA at 5 7 8 10 11 12 14,45.6 a.u.
2'F-ANA at 3 6 10 13 15,456 a.u.
2'F-ANA at 5 7 9,90.6 a.u.

# Block 3 — technique: protein-binding microarray; molecule type: double-stranded DNA, one strand shown; matrix: in vitro; tested at: 250 nM; notes: 60-bp whole probe; with: salmon DNA 0.4 mg/ml; relative to: random background probes; direction: higher = stronger binding; all sequences stand within: GCCTAGCAC … GTCTTGATTCGCTTGACGCTGCTG
# Target: Interferon regulatory factor 5, full length, phosphomimetic (IRF5, Homo sapiens, UniProt Q13568-2, residues 1-514, K96S/S451D/S453D/S456D/S462D)
Oligonucleotide,log fluorescence
GACGGTCTCGGTCTGGGGACGTGCTAG,-0.0537 z-score
TTAGATTCCAGTTTCGATTAGTGCTAG,9.49 z-score
TCTCTTTTATTTTTTTTATTGTGCTAG,1.83 z-score
TCATGGCTCCCTATAAAACTGTGCTAG,-0.519 z-score
TCAAAAGTCTTTTATGGTACTGTGCTA,0.263 z-score

# Mixed results
Substance,target,assay,test system,conditions,scale,quantity,result
"PhoQ, residues 284 288 289 292 302 303 TASMAF","PhoP, residues 12 14 15 18 19 TTLRV (Escherichia coli, UniProt P23836)","Sort-seq, refers to: YFP reporter",E. coli,"PhoQ-PhoP variant library, with: 10 µM Mg2+","relative to: high Mg2+ state, higher = stronger signaling",fold induction,3.69
